# Assay results gathered from unrelated publications.
# Compare with care: the assays were run in different laboratories.
Compound,test,system,setting,quantity,result
CNC(=O)c1cc(Oc2ccc(NC(=O)Nc3cc(C(C)(C)C)nn3-c3ccc4ncccc4c3)c(F)c2)ccn1,,patients,"oral, dose not given, cycles 1 and 2, Low Cmax subgroup",patients with visual abnormalities,18%
Cc1cc(NC2CCN(C(=O)OC3CCN(C(=O)/C=C/CN(C)C)C3)CC2)n2ncc(C(C)C)c2n1 (stereo not drawn),,patients with advanced solid tumours,"dose not given, QD arm, any grade",patients with Dyspnea,16%
C=CC(=O)NC1CCN(c2ncc3ncnc(Nc4ccc(Oc5ccc6c(c5)ncn6C)c(C)c4)c3n2)CC1,,male patients,"oral, dose not given, on-treatment adverse events",patients with Alopecia,0%
C[C@@H](c1ccc2nccn2c1)n1nnc2ncc(-c3cnn(C)c3)nc21,item: treatment-related grade ≥3 Paronychia,EGFR-mutant MET-altered NSCLC,"oral, dose not given, all",patients with adverse events,2%
CNC(=O)c1ccc(-c2cnc3ncc(Cc4ccc5ncccc5c4)n3n2)cc1F,item: Pruritus,cancer patients,"oral, 600 mg twice daily, all expansion cohorts, grade 3-4",patients with adverse event,0%
COc1cc(Nc2ncc3c(n2)-c2ccc(Cl)cc2C(c2c(F)cccc2OC)=NC3)ccc1C(=O)O,,cancer patients,"oral, dose not given, grade 1 any attribution, with: pembrolizumab",patients with increased creatinine,17%
Cc1cc(-c2nnc(N)nc2-c2ccc(F)cc2)cc(Cl)n1,item: rash,post-IO NSCLC patients,"oral, 100 mg once daily, treatment-related, grade 1",patients with immune-mediated AE,5.9%
FC(F)(F)c1ccc(CNc2ccc(Cc3c[nH]c4ncc(Cl)cc34)cn2)cn1,item: skin hypopigmentation,non-TGCT solid tumour patients,"oral, 1000 mg/day, all grades",patients with treatment-related adverse event,4%
O=C(Nc1nc2cccc(-c3ccc(CN4CCS(=O)(=O)CC4)cc3)n2n1)C1CC1,item: bile reflux into stomach,rheumatoid arthritis patients,"oral, 75 mg once daily, 4 weeks, any relatedness",patients with adverse event,4.5%

# Repeated from above:
Compound,test,system,setting,quantity,result
C[C@@H](c1ccc2nccn2c1)n1nnc2ncc(-c3cnn(C)c3)nc21,item: treatment-related grade ≥3 Paronychia,EGFR-mutant MET-altered NSCLC,"oral, dose not given, all",patients with adverse events,2%
